Results of several laboratories.
A part holds a random share of what one study measured.

Series 1 — technique: protein binding microarray; molecule type: double-stranded DNA, one strand shown; matrix: in vitro; tested at: not given; reference: not given; reading: higher = stronger binding
Target: Histone acetyltransferase KAT6A, winged helix 1, GST fusion (KAT6A, Homo sapiens, UniProt Q92794, residues 1-85)
Notes: 8-mer, flanks averaged, mean of 2 arrays, mostly near background
Target sequence (chain): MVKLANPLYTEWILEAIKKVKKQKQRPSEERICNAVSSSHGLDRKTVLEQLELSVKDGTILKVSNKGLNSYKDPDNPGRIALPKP
| Oligonucleotide | E-score |
| --- | --- |
| AGGAGCAC | -0.194 |
| AATTCCGT | 0.0908 |
| CATTGACA | -0.0447 |
| GAAATAGC | 0.0136 |
| ATATTTAG | 0.0251 |
| GACAACGA | -0.0984 |
| AGCTCGCC | 0.141 |
| CACCGATA | 0.0504 |
| CATCCTGC | -0.0602 |
| CCACTTAC | -0.152 |
| CGTGACGA | 0.0798 |
| CGTCCTGA | -0.161 |
| GTAGAGAA | -0.0786 |
| CGGCATAA | 0.23 |

Series 2 — technique: RNA Bind-n-Seq; molecule type: RNA; matrix: in vitro; tested at: 365 nM; reference: no-protein control; reading: higher = stronger binding
Target: RNA binding protein fox-1 homolog 2, RRM domain, GST-SBP tag (RBFOX2, Homo sapiens, UniProt O43251-10, residues 100-194)
Notes: natural RNA segment, single round, ends assumed
Constant ends, left off below: GGGAGUUCUACAGUCCGACGAUC … UGGAAUUCUCGGGUGCCAA
Residues (chain): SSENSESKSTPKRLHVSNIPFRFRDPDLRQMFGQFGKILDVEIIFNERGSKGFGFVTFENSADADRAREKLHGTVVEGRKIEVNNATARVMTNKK
| Oligonucleotide | RBNS enrichment (R) |
| --- | --- |
| AAUGAUGCAAGAAAAUCAAAUGGGAAUCUGGGGACCCAACACAACAUCCUGAAGAUUAUUAAAAGGAAAAGAUGCUGAUUGGUACAUAAAUCUUUUACAUGGCCUUGGUC | 1.03 |
| AGGGGAUUCUGACAUCUGCCUUGGAAGAUGAUAGAGUCCACCUGGGGCCCAGAGAGCUGGAGCAGGAUGGAGUGGGGGCCAGUCGCCAAGGCCGCCCAGCUGCUGUGACU | 0.461 |
| AGCCCCCUCCCCCGCAGCCCGGAACCCACAUUGCCGGCGCAUCCUGGGUGGAGGCAGACCCCGAGCUCGGGGAAGGGGUUUUCCUGCCUUCACGACCCAGAUCUGUGCUG | 0.839 |
| GGAUCCUGUUUCCCACCUCCUUCUCCUCCCCUGUACUCCCCAGUGCCUUCCUUGUUCUGGUGGAGCUGGGGUUUCUCUCCUCCCCAGUCCCACAACACUGCCAAAAAUCU | 0.927 |
| CUUCUGUCUGACACCAUCUCCCUUUCGGCCUGAAGGUUUCAGAGAGGGUGCUCUGGGCUGGAGGGAGCAGGGACACUCUCAGCCAAAUGGAGCAGUGGGGAGACACCAGG | 0.561 |
| AUGGUUCCCCACUCUAAUUCCAUUACUGAAGAUUAAGCCCAGGCAGGGACUUGCUCAUUCUAGGCAAGUGCUCUACCACUGAGCGGGAGUCACCCCUACUUCCUGGAUAG | 0.336 |
| CUCCUCUGACUCUAGUGGGAACAGGCCCCAGCUCAGCCUCCGGCAGGGAGGUCACCCCUCCACUUCAGCUUGCCCUGACCUCCGCUCGCAAACCCCGAGCUUCCAAGCCU | 0.586 |
| GCUGAGGAGACUAAGUUAGCCAUGUGGGCAGUGAAGCAUGCCAAUGUGAUCAAUCCCUAGUAAAAGCCCUGGACACCUAGGCAUGGGUGAGCUACUCUGGUUGGUAAUAC | 1.25 |
| GAUAGCAGAGGAGAGGGAUGAGCCCUGCGUUUAUUUCCCUUCUGCUCGUCCUUUUCCAGGACACAAUGGAACUGUCGGAAGAAGAGUUUCUAGAAAGUUAGGAUUGGGCA | 1.05 |
| AUAUUUAAUCAAUUAAAAUGUUUCUCUGUAAGUCGUCGAUGUUUCUGUUAAUACAGUUUCCUGAAGCACUUAAUUGUCUUUCUUCAUUGAGCUAGAGUAAGGAACGCCUU | 0.302 |
| CUCUGACCUCUGGUUCUAUUUUGGUAAGCUCCCAGCAGACACUUCCAAGUCUUGUACCAAGGGCAGUGCACACUAGGUCUAAGUUGGCAUAAACCUUCAUAUUCUGUCUG | 0.447 |
| ACUUCUUUGCAUAUGACAAUACUUAUUUGUAUAUAAGAGAAAGAACGAAAUAACCUUUAUUGAAAUAAAGAUACUAUGCAAGAAAAUGUACAGUUGUCGAAGUGGAGAAA | 0.688 |

Series 3 — technique: protein-binding microarray; molecule type: double-stranded DNA, one strand shown; matrix: in vitro; tested at: 250 nM; notes: 60-bp whole probe; added: salmon DNA 0.4 mg/ml; reference: random background probes; reading: higher = stronger binding; constant ends, left off below: GCCTAGCAC … GTCTTGATTCGCTTGACGCTGCTG
Target: Interferon regulatory factor 7, full length, phosphomimetic (IRF7, Homo sapiens, UniProt Q92985, residues 1-503, S101K/S471D/S472D/S475D/S476D/S477D/S483D/S484D/S487D)
Target sequence (chain): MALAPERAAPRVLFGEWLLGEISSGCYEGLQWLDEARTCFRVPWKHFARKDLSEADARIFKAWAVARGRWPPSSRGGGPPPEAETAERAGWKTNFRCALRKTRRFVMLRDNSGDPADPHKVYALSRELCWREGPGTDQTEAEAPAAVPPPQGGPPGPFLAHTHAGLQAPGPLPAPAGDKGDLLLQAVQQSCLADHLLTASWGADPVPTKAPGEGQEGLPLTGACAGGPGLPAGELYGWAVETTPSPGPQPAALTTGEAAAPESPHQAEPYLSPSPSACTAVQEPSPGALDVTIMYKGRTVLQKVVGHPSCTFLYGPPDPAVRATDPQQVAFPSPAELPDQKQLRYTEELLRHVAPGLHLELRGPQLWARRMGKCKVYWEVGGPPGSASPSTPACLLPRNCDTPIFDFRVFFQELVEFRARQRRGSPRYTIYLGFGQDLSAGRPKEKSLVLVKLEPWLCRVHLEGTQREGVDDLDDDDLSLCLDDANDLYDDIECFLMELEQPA
| Oligonucleotide | log fluorescence |
| --- | --- |
| TTAGATATCGGGACTGAATTAGTGCTA | 0.112 z-score |
| GACGGTCTCCTTTTCCGGACGTGCTAG | 1.46 z-score |
| TGAAAACTAAGTTTATTAGAGTGCTAG | 0.102 z-score |
| TTAGTTTTCGGTATCGGTTAGTGCTAG | 5.75 z-score |
| GAAGGTCTCCTTTTCCTGACGTGCTAG | 1.42 z-score |
| GACGGTTTCTGGTATCGGGACGTGCTA | 2.45 z-score |
| TTCGGTTTCGGGTATCGGTTAGTGCTA | 8.37 z-score |
| GGACCGCGACCTGCCAAGTCGTGCTAG | -0.122 z-score |
| GACGATATCAGTTTGGAGACGTGCTAG | -0.258 z-score |
| GACGATTTCAGCTTCGAGACGTGCTAG | 0.299 z-score |
| TTAGATTTCAGTATAGATTAGTGCTAG | 0.12 z-score |
| TTAGATTCCAGGTTCGATTAGTGCTAG | 3.35 z-score |
| TTAGGTTTCATTATCCTTTAGTGCTAG | 4.56 z-score |
| GACGGACTGATTCTCCTGACGTGCTAG | -0.165 z-score |
| GTTTGGGTCTTGTCTGGAGTCGTGCTA | 0.442 z-score |
| GACGGTGTCGGTCTCGGGACGTGCTAG | -0.452 z-score |
| AACCATTTTGGTTTTCTCTAGTGCTAG | 0.393 z-score |

Other studies, line by line
| Molecule | target | assay | system | conditions | scale | quantity | value |
| --- | --- | --- | --- | --- | --- | --- | --- |
| PhoQ, residues 284 288 289 292 302 303 SVTLVV | PhoP, residues 12 14 15 18 19 LHATL (Escherichia coli, UniProt P23836) | Sort-seq, measured: YFP reporter | E. coli | PhoQ-PhoP variant library, added: 10 µM Mg2+ | reference: high Mg2+ state, higher = stronger signaling | fold induction | 2.82 |

Some of these lines once more (series 1):
| Oligonucleotide | E-score |
| --- | --- |
| AGGAGCAC | -0.194 |
| GACAACGA | -0.0984 |
| CGTCCTGA | -0.161 |
